Measured values pooled from the literature.
A part holds a random share of what one study measured.
UniProt P61077, sequence (whole entry, looked up): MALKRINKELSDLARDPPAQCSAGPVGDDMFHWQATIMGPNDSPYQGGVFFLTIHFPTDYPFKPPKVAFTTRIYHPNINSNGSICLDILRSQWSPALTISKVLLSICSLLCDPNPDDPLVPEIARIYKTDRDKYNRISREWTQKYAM

Study 1 — method: EMSA with sequencing; form: double-stranded DNA, one strand shown; medium: in vitro; tested at: 10 and 20 nM; baseline: negative control set to 0; reading: higher = stronger binding
Target: Hepatocyte nuclear factor 3-alpha (Foxa1, Mus musculus, UniProt P35582, residues 1-468, full length assumed)
Setting: whole designed probe, mean of two concentrations, ends assumed
Constant ends, left off below: GTGAGCGGTGCCCATTGATGGGGAAC … TTTCACTGGGATCGTGGGGAC
Construct (chain): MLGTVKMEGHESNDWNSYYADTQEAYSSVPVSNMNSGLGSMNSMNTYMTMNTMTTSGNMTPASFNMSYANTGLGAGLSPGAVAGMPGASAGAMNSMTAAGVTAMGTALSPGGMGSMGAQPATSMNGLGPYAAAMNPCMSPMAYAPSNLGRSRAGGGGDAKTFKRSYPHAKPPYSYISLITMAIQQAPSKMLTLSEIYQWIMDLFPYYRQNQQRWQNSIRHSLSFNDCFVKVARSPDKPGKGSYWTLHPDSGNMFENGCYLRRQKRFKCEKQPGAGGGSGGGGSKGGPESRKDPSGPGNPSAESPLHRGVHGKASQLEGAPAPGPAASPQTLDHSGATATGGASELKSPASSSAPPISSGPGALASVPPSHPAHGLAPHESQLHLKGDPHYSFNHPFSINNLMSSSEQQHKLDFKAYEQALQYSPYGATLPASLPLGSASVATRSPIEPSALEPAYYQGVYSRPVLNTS
Sequence	normalised bound fraction
ACTGTAGTGACTCATGTCCAGCCCCAGTGCGAGTGTGTTCCTCTCTAAAGAAAACCCAGTGTGTGTGTTCTCTCTAAAGAAAATGTATTACTAAGTAAACAAAAAAAGCTACTAAGCTTAAAGTTACCAAAACAAGTTCCAGATGAGCAGGGCCCAGAGGCATTTTCTGAAGAAGAGCCGTGCCCTGCCTTAT	0.559 ratio
CATTAGAGTCAAAGTTGTTAAGGGGAGCTAGTCATAGCTACCACGTGGCCAGGCATGTGGAACCAGACACCAGGCACACATCATGTAACATCATATTTACTTTAAATAATGAATCATCACTAGTTCATAGTGACACACTACTTGAGATATATAGAATAACATTATTACCCAGTAAGTATGTGAACATTCCGAT	0.323 ratio
GGAGCAATGCCGGCTGGTGGCCTGGCCGCTCCGCCCCTTCCCTACCCCTCGCGGAGGGCCCGCCCCCTGCCCCGCGCCGGCTAGCGGAGGAGAGTAAATACAACAGGAGCGCAAAATGGCGGAACCGCCGAGCCCCGTGCACTGTGTCGCTGCCGCGGCCCCCACCGCCACCGTCTCGGAGAAAGAACCGTTT	0.23 ratio
CAATTTCTTAAGCTCAAAGTTAATGTTTTCTTTTTCTTTTTTATCTTTTTCTCACTTTTGGTTCCTTTTGATAGCTTTTGGGGAGAAAAAATATGTAATCTTGCATTTACTCGTCATATTTCTTGAAGTCAAGACCTTTCACAAACCTGTTTGAAGTATTTTATAGTTCCTGACATCTTTTACAATAAATAAT	0.116 ratio
TCCGGTTGGGAGCTTCTTCACTAAATGAGAGAATGTTTGAAATATCAAATAGAGTACAATAGTACATAGCATATCCTAAATGATAGGGTACAAAGTAAACAAGTTAAAAGTAAATGTGTAGCTCTAGGATCAAGCCAAACAAAGCTATTTAAAACCTAAACTTAAAATGAAGGGGATGAATTAGTCTAGATCT	0.479 ratio
CTACTGCACAGAAAATTATCTGCTAAAATTCTGTGCAATGTGCATTGTTATTCTCTAAGTTTTTTTTTAAATAGCTATTTTGTAAAAATCCTAAGTAATCTTGACTTGTAATGCAGGATACAAACTTTCATTTGTCTGTGACATCTGCAAGAGAAAGATGTGATGTCCCCATTTAAAGAGGAATAGCTGATTA	-0.063 ratio
ATCTTCCCCCTCTTCCTTGCCCCACCAGCTCACCTACGGGGGTTATTTGCAGATAGGAAAATAAATAAAGCCGGCATTCGTTAACGCAGTTCACGCGCATACTGCTGTTTGCTCTGCATGAATCATGGTCCTTACGCGAGGCGTGGCTCCGGGAGAGCAAAGCACCGTGTCAGGCGCATGATCCGGGCTCGCC	0.359 ratio
CTGACAGCATGATTTAATGGCCTGGTTGCTCCATGAGTTGACATGGCAACCACAGAAAATGCCATAAATATCTGAGTGTGGACGTGAATGCTATGTTTACATTGTGTGTGGTGCATTGTGTGACATGTGGTGGCTGTTGTCTCTTCCAGTTGGAAACGTCTGGAATTGACAGCCATGTTTTAGAGCCATTTGG	0.459 ratio

Study 2 — method: RNAcompete; form: RNA; medium: in vitro; tested at: 20 nM; setting: 7-mer, probes averaged, single round; baseline: mean of 7-mers; reading: higher = stronger binding
Target: PABPC1L2, full length, GST fusion (mouse, UniProt A0ABA7IW68)
Construct (chain): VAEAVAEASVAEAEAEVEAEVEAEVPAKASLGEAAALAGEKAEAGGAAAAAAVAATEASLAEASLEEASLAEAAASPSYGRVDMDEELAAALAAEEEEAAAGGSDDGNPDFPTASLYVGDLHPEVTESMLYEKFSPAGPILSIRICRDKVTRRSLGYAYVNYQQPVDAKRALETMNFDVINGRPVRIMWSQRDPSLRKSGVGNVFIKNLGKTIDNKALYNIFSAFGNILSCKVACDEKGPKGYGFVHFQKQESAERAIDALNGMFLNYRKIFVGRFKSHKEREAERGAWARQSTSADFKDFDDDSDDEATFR
Sequence	7-mer Z-score
CAACUAC	-0.117
UCCUAGG	-0.168
GCUUACA	0.00798
CAGAGGU	0.0877
UGCCCGU	-0.302
UAGCGUU	-0.253
AGUUCUU	-0.275
AGCCCGA	-0.00652

Mixed results
Molecule	target	test	test system	conditions	how to read	quantity	result
SWHHTSDDF	HLA class I histocompatibility antigen, A alpha chain, allele A*80:01 (Homo sapiens, UniProt P04439)	peptide-MHC binding	peptide	concentration not given		binding	inactive
NLSELTPYILCSICKGYLIDATTITECLHTFCKSCIVRHFYYSNRCPKCNIVVHQTQPLY (PCGF6 RING domain (UniProt Q9BYE7))	UBE2D3 UBC core domain (UniProt P61077)	yeast two-hybrid	yeast	mostly zero background	baseline: not given, higher = stronger interaction	lacZ reporter activity	0

Repeated from above (study 1):
Sequence	normalised bound fraction
ACTGTAGTGACTCATGTCCAGCCCCAGTGCGAGTGTGTTCCTCTCTAAAGAAAACCCAGTGTGTGTGTTCTCTCTAAAGAAAATGTATTACTAAGTAAACAAAAAAAGCTACTAAGCTTAAAGTTACCAAAACAAGTTCCAGATGAGCAGGGCCCAGAGGCATTTTCTGAAGAAGAGCCGTGCCCTGCCTTAT	0.559 ratio
CATTAGAGTCAAAGTTGTTAAGGGGAGCTAGTCATAGCTACCACGTGGCCAGGCATGTGGAACCAGACACCAGGCACACATCATGTAACATCATATTTACTTTAAATAATGAATCATCACTAGTTCATAGTGACACACTACTTGAGATATATAGAATAACATTATTACCCAGTAAGTATGTGAACATTCCGAT	0.323 ratio
GGAGCAATGCCGGCTGGTGGCCTGGCCGCTCCGCCCCTTCCCTACCCCTCGCGGAGGGCCCGCCCCCTGCCCCGCGCCGGCTAGCGGAGGAGAGTAAATACAACAGGAGCGCAAAATGGCGGAACCGCCGAGCCCCGTGCACTGTGTCGCTGCCGCGGCCCCCACCGCCACCGTCTCGGAGAAAGAACCGTTT	0.23 ratio
